{"data": "Published values from different studies", "rep main protease": "Replicase polyprotein 1ab, main protease (rep, Severe acute respiratory syndrome coronavirus 2, UniProt P0DTD1)", "Spike glycoprotein": "Spike glycoprotein (Severe acute respiratory syndrome coronavirus 2, UniProt P0DTC2)", "note": "Protocols differ between the studies behind these lines. Several values in a cell are separate wells, animals, samples, runs or records. ± marks the error that the study gave."}
{"Compound": "C[C@@H]1O[C@@H](O[C@@H]2C(=O)c3c(O)cc(O)cc3O[C@@H]2c2ccc(O)c(O)c2)[C@H](O)[C@H](O)[C@H]1O", "tested on": "rep main protease", "test": "reporter gene (mKate2), inhibitor", "conditions": "20 µM", "endpoint": "inhibition", "value": "-0.476%"}
{"Compound": "Cc1ccc2cc(C(=O)N3CCCC4(CCN(c5cc6nncn6c(C)n5)CC4)C3)ccc2c1", "tested on": "rep main protease", "test": "enzyme activity, inhibitor", "conditions": "5 µM, mean of runs", "endpoint": "inhibition", "value": "11.9%"}
{"Compound": "CC(C)=CCc1cc2c(cc1O)O[C@H](c1ccc(O)cc1)CC2=O", "tested on": "Spike glycoprotein", "test": "binding, BLI", "endpoint": "kon", "value": "1800 M⁻¹ s⁻¹"}
{"Compound": "CNC(=O)[C@H](Cc1c[nH]c2ccccc12)NC(=O)[C@@H](CC(=O)NO)CC(C)C", "tested on": "rep main protease", "test": "reporter gene (mKate2), inhibitor", "conditions": "20 µM", "endpoint": "inhibition", "value": "-0.848%"}
{"Compound": "O=C(NC[C@H]1CN(C(=O)c2cc(O)ccc2F)CC[C@@]12CCOC2)c1ccc2n[nH]nc2c1", "tested on": "rep main protease", "test": "enzyme activity, inhibitor", "conditions": "5 µM, mean of runs", "endpoint": "inhibition", "value": "14.7%"}
{"Compound": "CC[C@H](C)[C@H](NC(=O)[C@H](CC(C)C)NC(=O)[C@H](Cc1c[nH]c2ccccc12)NC(=O)[C@H](CCC(N)=O)NC(=O)[C@@H](NC(=O)[C@H](Cc1ccccc1)NC(=O)[C@H](C)NC(=O)[C@H](CCCCNC(=O)COCCOCCNC(=O)COCCOCCNC(=O)CC[C@H](NC(=O)CCCCCCCCCCCCCCCCCCC(=O)O)C(=O)O)NC(=O)[C@H](CCC(N)=O)NC(=O)[C@H](C)NC(=O)[C@@H](NC(=O)[C@H](CCCCN)NC(=O)[C@H](CC(=O)O)NC(=O)[C@H](CC(C)C)NC(=O)C(C)(C)NC(=O)[C@@H](NC(=O)[C@H](CO)NC(=O)[C@H](Cc1ccc(O)cc1)NC(=O)[C@H](CC(=O)O)NC(=O)[C@H](CO)NC(=O)[C@@H](NC(=O)[C@H](Cc1ccccc1)NC(=O)[C@@H](NC(=O)CNC(=O)[C@H](CCC(=O)O)NC(=O)C(C)(C)NC(=O)[C@@H](N)Cc1ccc(O)cc1)[C@@H](C)O)[C@@H](C)O)[C@@H](C)CC)[C@@H](C)CC)C(C)C)C(=O)N[C@@H](C)C(=O)NCC(=O)NCC(=O)N1CCC[C@H]1C(=O)N[C@@H](CO)C(=O)N[C@@H](CO)C(=O)NCC(=O)N[C@@H](C)C(=O)N1CCC[C@H]1C(=O)N1CCC[C@H]1C(=O)N1CCC[C@H]1C(=O)N[C@@H](CO)C(N)=O", "test system": "healthy subjects", "conditions": "all MAD doses", "endpoint": "subjects with acute pancreatitis", "value": "0%"}
{"Compound": "Cn1cnc(Cn2c(=O)[nH]/c(=N\\c3cc4cn(C)nc4cc3Cl)n(Cc3cc(F)c(F)cc3F)c2=O)n1", "test system": "human, mild renal impairment", "conditions": "oral, 375 mg, vessel puncture site haemorrhage TEAE, Moderate severity", "endpoint": "patients with adverse event", "value": "0%"}
{"Compound": "CC(C)=CCc1c(O)ccc(C(=O)/C=C/c2ccc(O)cc2)c1O", "tested on": "Spike glycoprotein", "test": "binding, BLI", "endpoint": "kon", "value": "3860 M⁻¹ s⁻¹"}
{"Compound": "O=C(NC[C@@H]1C[C@H]2CC[C@@H]1N(C(=O)c1ccc3n[nH]nc3n1)C2)[C@@H]1CCc2n[nH]c(=O)n2C1", "tested on": "rep main protease", "test": "enzyme activity, inhibitor", "conditions": "5 µM, run 2", "endpoint": "inhibition", "value": "12.3%"}
{"Compound": "CC(C)C[C@@H](C=O)NC(=O)[C@H](CC(C)C)NC(=O)[C@H](CC(C)C)NC(=O)OCc1ccccc1", "tested on": "rep main protease", "test": "reporter gene (Gaussia luciferase), inhibitor", "conditions": "20 µM", "endpoint": "inhibition", "value": "-5.03%"}
{"Compound": "CC[C@H](C)[C@H](NC(=O)[C@@H]1CCCN1C(=O)[C@H](C)NC(=O)[C@@H]1CSSC[C@@H]2NC(=O)[C@H](CC(=O)O)NC(=O)[C@H](CCCNC(=N)N)NC(=O)[C@H](CCC(=O)O)NC(=O)[C@H](CCCNC(=N)N)NC(=O)CNC(=O)[C@H](CC(=O)O)NC(=O)[C@@H]3CSSC[C@H](NC(=O)[C@H](CCC(=O)O)NC(=O)[C@H](CC(C)C)NC(=O)CNC(=O)[C@H](C)NC(=O)[C@H](CSSC[C@H](NC(=O)[C@H](Cc4ccccc4)NC(=O)[C@@H](N)CO)C(=O)N[C@@H](CC(C)C)C(=O)N[C@@H](C(C)C)C(=O)N[C@@H](CCCCN)C(=O)N[C@@H](Cc4c[nH]c5ccccc45)C(=O)N[C@@H](CCCCN)C(=O)N[C@@H](CCC(N)=O)C(=O)N3)NC2=O)C(=O)N[C@@H](Cc2c[nH]c3ccccc23)C(=O)N[C@@H](CCCCN)C(=O)N[C@@H](CCCNC(=N)N)C(=O)N[C@@H](CO)C(=O)NCC(=O)N[C@@H](CO)C(=O)N[C@@H](CCCCN)C(=O)N[C@@H](CO)C(=O)N[C@@H](CO)C(=O)N[C@@H](C(C)C)C(=O)N1)C(=O)N[C@H](C(=O)O)[C@@H](C)O", "tested on": "ASIC1 (Homo sapiens, UniProt P78348)", "test": "ion current, outside-out patch clamp", "test system": "HEK-293T", "conditions": "1 µM", "how to read": "baseline: same patch before toxin", "endpoint": "deactivation slowing", "value": "2.1 ± 0.4 fold"}
{"Compound": "COc1ccc(/C=C/c2cc(O)cc(O)c2)cc1O", "tested on": "Spike glycoprotein", "test": "binding, BLI", "endpoint": "kon", "value": "821 M⁻¹ s⁻¹"}
{"Compound": "Nc1ncnc2c([C@@H]3N[C@H](CO)[C@@H](O)[C@H]3O)c[nH]c12", "tested on": "Marburg virus", "test": "viral RNA in cell lysate", "test system": "HeLa, Musoke", "conditions": "3.1 µM, 1 h", "endpoint": "inhibition", "value": "57.1%"}
{"Compound": "Cc1cnc(C(=O)N[C@H]2CCCCC/C=C\\[C@@H]3C[C@@]3(C(=O)NS(=O)(=O)C3CC3)NC(=O)[C@@H]3C[C@@H](Oc4nc5ccccc5c5ccccc45)CN3C2=O)cn1", "tested on": "rep main protease", "test": "reporter gene (Gaussia luciferase), inhibitor", "conditions": "20 µM", "endpoint": "inhibition", "value": "5.87%"}
{"Compound": "Nc1cc(OCCCNCc2ccc(S(=O)(=O)F)cc2)ccn1", "tested on": "cya (Bacillus anthracis, UniProt P40136)", "endpoint": "kinact", "value": "0.00105 s⁻¹"}
{"Compound": "O=C(NCC[C@@H]1c2ccccc2CCN1C(=O)c1ncnc2[nH]ccc12)c1ccc[n+]([O-])c1", "tested on": "rep main protease", "test": "enzyme activity, inhibitor", "conditions": "5 µM", "endpoint": "inhibition", "value": "14.1%"}
{"Compound": "CCc1c(C(=O)C(N)=O)c2c(OCC(=O)O)cccc2n1Cc1ccccc1", "tested on": "Daboia russelii venom phospholipase A2", "test": "enzyme activity, inhibitor", "test system": "TN population", "conditions": "1 µM, together with: NOB substrate", "how to read": "baseline: venom alone", "endpoint": "remaining activity", "value": "94% and 100% and 90%"}
{"note": "For quick reference, copied from above:"}
{"Compound": "O=C(NC[C@@H]1C[C@H]2CC[C@@H]1N(C(=O)c1ccc3n[nH]nc3n1)C2)[C@@H]1CCc2n[nH]c(=O)n2C1", "tested on": "rep main protease", "test": "enzyme activity, inhibitor", "conditions": "5 µM, run 2", "endpoint": "inhibition", "value": "12.3%"}
{"Compound": "CC(C)C[C@@H](C=O)NC(=O)[C@H](CC(C)C)NC(=O)[C@H](CC(C)C)NC(=O)OCc1ccccc1", "tested on": "rep main protease", "test": "reporter gene (Gaussia luciferase), inhibitor", "conditions": "20 µM", "endpoint": "inhibition", "value": "-5.03%"}
